Experimental data of several laboratories.
Each line is one published result; not all experiments were run side by side.

SMILES | assay | system | conditions | endpoint | value
N[C@@H]1c2ccccc2OC12CCN(c1cnc3c(N4CCCc5ncccc54)n[nH]c3n1)CC2 | refers to: Diarrhea | human advanced or metastatic solid tumours | oral, 60 mg once daily, phase Ia pooled cohort | patients with treatment-emergent adverse event | 64%
Cn1nc(NS(C)(=O)=O)c2c(Cl)ccc(-n3c([C@H](Cc4cc(F)cc(F)c4)NC(=O)Cn4nc(C(F)F)c5c4C(F)(F)[C@@H]4C[C@H]54)nc4nc(OCCC(F)(F)F)ccc4c3=O)c21 | refers to: LDL cholesterol grade 3 increase | human | 300 mg once daily, powder in bottle | patients with laboratory abnormality | 13%
COc1ccc(-c2c(-c3ccc(C#N)c(F)c3)nc(N3CCC(N)CC3)n(C)c2=O)cc1F | refers to: pleural effusion | human patients | oral, dose not given, dose escalation | patients with serious TEAE | 2%
C[C@]1(O)C[C@@](N)(c2ccc(-c3nc4n(c3-c3ccccc3)COc3ccncc3-4)cc2)C1 | – | human, advanced or metastatic solid tumours | 16 mg once daily, dose-ranging cohort | patients with serious adverse event | 100%
O=C1Nc2cc3[nH]nc(-c4ccncc4)c3cc2CN1Cc1ccccc1 | CTCAE v4.03 | human, relapsed or refractory advanced solid tumours | intravenous, 7.2 mg/kg | patients with retinal detachment | 33%
CNC(=O)c1cc(Oc2ccc(NC(=O)Nc3cc(C(C)(C)C)nn3-c3ccc4ncccc4c3)c(F)c2)ccn1 | – | human, trial | oral, 200 mg twice daily, starting dose | patients with any related serious AE | 25%
Cn1cncc1-c1c(F)cncc1NC(=O)c1c(N)nn2cc(F)cnc12 | – | human patients | oral, 150 mg twice daily, 4 days on 3 days off | patients grade ≥3 Platelet count decrease | 25%
COc1ncnn2ccc(-c3cnc4nc(C)n(Cc5nnc([C@@H](C)F)o5)c4c3)c12 | – | human | oral, dose not given, grade 3 | patients with any adverse reaction | 28.6%
CN[C@@H](C)C(=O)N[C@H]1CN(S(=O)(=O)c2cccc(S(=O)(=O)N3CC[C@H]4CC[C@@H](C(=O)NC(c5ccccc5)c5ccccc5)N4C(=O)[C@@H](NC(=O)[C@H](C)NC)C3)c2)CC[C@H]2CC[C@@H](C(=O)NC(c3ccccc3)c3ccccc3)N2C1=O | – | human, advanced solid tumours | intravenous, 0.3 mg weekly, CTCAE version 4.0 | patients with any TRAE | 0%
C[C@@H]1OC(=O)NN=C1c1ccc(-c2ccc(F)cc2)c(C(F)(F)F)c1 | phase I trial, refers to: platelet count decreased | human patients | dose not given, worst grade 3, all doses | patients with TEAE | 20%
Cc1cn([C@H]2O[C@@H](CO[P@@](=O)(N[C@@H](C)C(=O)OC(C)C)Oc3ccccc3)[C@H](O)[C@H]2F)c(=O)[nH]c1=O | refers to: ALT/AST elevated | human | 10 mg | patients with TEAE | 0%
CN(C)C(=O)c1cc2cnc(Nc3ccc(N4CCNCC4)cn3)nc2n1C1CCCC1 | refers to: Renal toxicity, AESI | human, HR+/HER2− advanced breast cancer | oral, dose not given, grade 4, CTCAE v4.03 | patients with adverse event | 0%
C=CC(=O)Nc1cc(Nc2nccc(Nc3cc(Cl)c(F)cc3C(C)(C)O)n2)c(OC)cc1N1CC[C@@H](N(C)C)C1 | – | human patients | oral, 100 mg, treatment-emergent adverse events | patients with paronychia | 11.1%
